Assay results pooled from the literature.
Parts stem from different laboratories: compare values within a part only. Substitutions count along the parent as printed.

Sample 1 — method: DHFR PCA, deep sequencing; matrix: yeast; together with: (+)-ABA 2500 µM; baseline: wild-type fitted maximum; reading: higher = stronger binding
Target: ABI1, truncated, D143A, DHFR fusion (Arabidopsis thaliana)
Setting: methotrexate growth selection, single substitutions
Starting sequence: PYL1, truncated, DHFR fusion (Arabidopsis thaliana); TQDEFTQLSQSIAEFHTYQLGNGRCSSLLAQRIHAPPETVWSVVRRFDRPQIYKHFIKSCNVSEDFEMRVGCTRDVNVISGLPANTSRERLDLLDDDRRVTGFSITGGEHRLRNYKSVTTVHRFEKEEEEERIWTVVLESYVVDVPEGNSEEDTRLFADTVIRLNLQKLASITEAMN
Change | relative binding score [%]
Q167S | 98.3
A175M | 93
G81W | 7.35
R32P | 83.3
R46G | 97.5

Sample 2 — method: aptamer microarray, sandwich; form: DNA with 2'F-ANA; matrix: in vitro; tested at: 200 nM; together with: Cy3 exosite-II aptamer, 400 nM; reading: higher = stronger binding; oligonucleotide: GGTTGGTGTGGTTGG
Target: Prothrombin, mature alpha-thrombin (F2, Homo sapiens, UniProt P00734)
Setting: whole 15-mer aptamer, many near background
Modification | mean fluorescence intensity [a.u.]
2'F-ANA at 4 6 8 10 11 12 13 14 | 90.2
2'F-ANA at 1 2 4 6 7 9 10 12 13 | 50.6
2'F-ANA at 3 5 6 9 10 11 12 13 15 | 59.5
2'F-ANA at 3 6 7 9 10 11 12 14 15 | 313
2'F-ANA at 1 2 3 4 5 7 8 11 12 14 | 49.3
2'F-ANA at 2 4 10 12 13 | 109
2'F-ANA at 2 3 4 6 9 10 11 12 13 15 | 195
2'F-ANA at 1 2 3 5 9 12 13 15 | 82.7

Sample 3 — method: RNA Bind-n-Seq; form: RNA; matrix: in vitro; tested at: not given; baseline: input RNA pool; reading: higher = stronger binding
Target: RING finger protein unkempt homolog, zinc fingers 1-6, GST-SBP tag (UNK, Homo sapiens, UniProt Q9C0B0, residues 30-357)
Setting: RNA with constant flanks, human and mouse sites, ends assumed
Shared flanks, not repeated: GGGAGUUCUACAGUCCGACGAUC … CAACAGAGGAUUGAGCAUCA
Construct (chain): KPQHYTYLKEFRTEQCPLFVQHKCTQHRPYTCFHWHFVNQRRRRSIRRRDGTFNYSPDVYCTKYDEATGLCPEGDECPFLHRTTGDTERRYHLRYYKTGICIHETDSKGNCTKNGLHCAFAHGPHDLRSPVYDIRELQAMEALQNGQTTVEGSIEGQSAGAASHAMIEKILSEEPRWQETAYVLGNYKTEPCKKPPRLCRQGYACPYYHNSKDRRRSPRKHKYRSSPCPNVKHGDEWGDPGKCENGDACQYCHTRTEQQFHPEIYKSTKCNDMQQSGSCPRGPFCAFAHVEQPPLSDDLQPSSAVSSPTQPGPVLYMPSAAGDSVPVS
Oligonucleotide | bound/input enrichment [ratio]
CAACAAGCUGGCCAUGAUGAAGGUGUUCUGGAUCGUCUUGUGGACAGGAGGGAACGGCCACUAGAAGGUGGCCGAACUAAUUCCAAUAACAACAACAGCAAUCCAUGUUCAGAACAAGAU | 0.0766
AAAACGUUGAUUGCCAAGGCCACAGCCAAAGAAGCAGGCUGUCGAUUUAUUAACCUUCAGCCUUCGACACUGACCGAUAAGUGGUAUGGAGAAUCUCAGAAAUUGGCUGCUGCUGUCUUC | 0.104
UCUGCUACACGGGAGCCACCAUACAGAGUACCUAGGGAUGAUUGGGAAGAAAAAAGGCACUUUAGAAGAGAUAGUUUUGAUGAUCGUGGUCCUAGUCUCAACCCAGUGCUUGAUUAUGAC | 1.61
CCCCCAGACACUGCUGCCAGGCUGGGCUGGUCCCAGCCCUUAGGUAACCUCCAAGCUCCCUUAGGCUAUGAUAAGUUUAGCUAUUCUUGGCGGAGCAAGAAAGGCACCAAGUUCCACCAG | 0.396
AAAGAGCGCACACGUAGAGACCUUAUCCAGGAUCAAAAUAUGGAUGAAAAGGGAAAGCAAAGGAACCGGCGAAUAUUUGGCUUGUUGAUGGGUACCCUUCAAAAAUUUAAACAAGAAUCC | 0.232
UGUGCCCUGAUGGCAGCUGAAGUUUGAUUCAGAUGGGCACUUUUCUUCCCCUUCCCUGCCUAGUUUCCUUUUGUUCCUUGAGUCCACGCAGAAUUCCAUUCUCUGGUCAGCAGACAGGCU | 1.11
UGUGUGACAUUUGCUGCAGAUGAACCCGUGUACAUUGCUGGUCAACAGGCUUUUUUCAACUAUUCUACAAGCAAAAGGAUCACUCGGCCAGGAAAUACUGAUGAUCCAUCAGGAGGCAAC | 0.138
CAUGAUCUUGUUACUGUGAUAUUUUAAAUAUCCACAGUACUCACUUUUUCCAAAUGAUCCUAGUAAUUGCCUAGAAAUAUCUUUCUCUUACCUGUUAUUUAUCAAUUUUUCCCAGUAUUU | 5.94
GAAAACGGACGAUGUAUUACUAAGCUGGAAAACAUGGGGUUUCGAGUGGGACAAGGAUUGAUAGAAAGGUUUACAAAAGAUACUGCAAGGUUCAAGGAUGAGUUAGAUAUCAUGAAGUUC | 0.697

Mixed results
Substance | target | assay | test system | conditions | how to read | quantity | result
PhoQ, residues 284 288 289 292 302 303 TVTVVA | PhoP, residues 12 14 15 18 19 LYFRQ (Escherichia coli, UniProt P23836) | Sort-seq, measured: YFP reporter | E. coli | PhoQ-PhoP variant library, together with: 10 µM Mg2+ | baseline: high Mg2+ state, higher = stronger signaling | fold induction | 9.14

Repeated from above (sample 2):
Modification | mean fluorescence intensity [a.u.]
2'F-ANA at 1 2 3 5 9 12 13 15 | 82.7
2'F-ANA at 3 5 6 9 10 11 12 13 15 | 59.5
